Published values of several laboratories.
Protocols differ between the studies behind these lines. “And” joins repeats or separate records; there may be more than shown. Numbers after ± are the reported error.

Structure (SMILES) | target or system | assay | test system | conditions | scale | endpoint | result
Cc1cc(C(=O)Nc2nc3cccc(C)c3n2[C@H]2CCCCN(C(=O)/C=C/CN(C)C)C2)ccn1 | Trypanosoma brucei | propidium iodide flow cytometry, refers to: G1 phase | bloodstream CLK1 over-expression uninduced | concentration not given |  | cell cycle distribution | 15.3% and 14.8% and 20.9%
CC(=O)Oc1ccccc1C(=O)[Se]CC(=O)Nc1cccc(C(F)(F)F)c1 | NCI60 melanoma subpanel | cytotoxicity, inhibitor |  | five-dose |  | CC50 | 17.9 µM
C[C@@H](Cc1ccc(O)c(O)c1)[C@@H](C)Cc1ccc(O)c(O)c1 | THP-1, PMA-differentiated |  |  | 10 µM, 24 h, together with: LPS 1 µg/mL | baseline: LPS model | IL-6 mRNA level | decreased
CC(C)C12OC1C1OC13C1(C)CCC4=C(COC4=O)C1CC1OC13C2OC(=O)CCC(=O)OC1OC(CO)C(O)C(O)C1O (stereo not shown) | CFPAC-1 | cell growth or viability, XTT |  | 47 h |  | IC50 | 0.51 µM
CC(C)CC(O)(CC(C)C)c1cn(C(=O)N2CCCC2)nn1 | mouse T-cells | SILAC proteomics, refers to: UQCRH |  | 1 nM, 6 h, unit not given | baseline: DMSO | protein level | 0.9
CSCC[C@H](NC(=O)CNC(=O)[C@H](CCSC)NC(=O)[C@H](CS)NC(=O)[C@@H](N)CS)C(=O)N[C@@H](CS)C(=O)NCC(=O)N[C@@H](CCCCN)C(=O)O | RAW264.7 | Western blot |  | concentration not given, 6 h pretreatment, together with: LPS 30 min |  | p-NF-κB/NF-κB ratio | 0.17 ± 0.01
CC(C)(C)C(=O)OCOP(=O)(OCOC(=O)C(C)(C)C)C1CCCN(O)C1=O (stereo not shown) | OVCAR-3 |  |  |  |  | log TGI | > -4 log M
COc1ccccc1-c1n[nH]c2nc(N[C@H]3CC[C@H](NS(=O)(=O)CC(C)C)CC3)ncc12 |  | bead binding, competition bead pull-down, refers to: LMJF.27.0240 | Leishmania donovani extract | 10 µM | baseline: vehicle | relative abundance | 1.71
O=C1NC2(CC2)COc2ncc(F)cc2[C@H]2COCCN2c2ccn3ncc1c3n2 |  |  | Sprague-Dawley rat, male, serum | oral, 2.5 mg/kg/day, end of treatment, 4-week subacute toxicity |  | serum LDH activity | 761 ± 310 U/L
Cc1cc(Oc2nc(N3CC[C@@H](c4ccncc4)C3)ncc2F)[nH]n1 | Calu-6 | cell proliferation | lung cancer |  |  | IC50 | 93.3 µM
CC(C)C[C@H](NC(=O)[C@H](CC(=O)O)NC(=O)CNC(=O)[C@@H](N)CCCNC(=N)N)C(=O)N[C@@H](C)C(=O)N[C@H](C(=O)N[C@@H](CC(C)C)C(=O)N[C@@H](CCCNC(=N)N)C(=O)N[C@@H](CCC(N)=O)C(=O)N[C@@H](CC(C)C)C(=O)N[C@@H](C)C(=O)N[C@@H](CCC(N)=O)C(=O)N[C@@H](CCC(=O)O)C(=O)N[C@@H](CC(=O)O)C(=O)NCC(=O)N[C@H](C(=O)N[C@H](C(=O)NCC(=O)N[C@H](C(=O)N[C@@H](CCCNC(=N)N)C(=O)NCCOCCOCCOCCOCCOCCOCCOCCOCCOCCOCCOCCOCCC(=O)N[C@@H](CS)C(N)=O)C(C)C)C(C)C)C(C)C)[C@@H](C)O | MCF7 breast cancer | cell binding, phage binding, refers to: output/input phage |  | 10 min, 37 °C | baseline: control phage | selectivity ratio | 15 ± 3.8
COc1ccccc1-c1n[nH]c2nc(NC3CCN(C(=O)Cc4ccc(F)cc4F)CC3)ncc12 |  | bead binding, competition bead pull-down, refers to: LINJ.31.0450 | Leishmania donovani extract | 10 µM | baseline: vehicle | relative abundance | 0.92
O=C(O)c1ccc(-c2nc(-c3ccccc3Cl)c3sccn23)cc1 | K562 | erythroid differentiation, flow cytometry |  | 0.1 mM, 48 h |  | CD235a-positive cells | 61.8% and 70.5% and 66.4%

Repeated from above:
Structure (SMILES) | target or system | assay | test system | conditions | scale | endpoint | result
CC(C)(C)C(=O)OCOP(=O)(OCOC(=O)C(C)(C)C)C1CCCN(O)C1=O (stereo not shown) | OVCAR-3 |  |  |  |  | log TGI | > -4 log M
